Measured values from different studies.
Every numbered part comes from another study and shows a few of its results, in no order. Changes are numbered by the printed parent chain.
Chain of UniProt O00762 (whole entry, looked up): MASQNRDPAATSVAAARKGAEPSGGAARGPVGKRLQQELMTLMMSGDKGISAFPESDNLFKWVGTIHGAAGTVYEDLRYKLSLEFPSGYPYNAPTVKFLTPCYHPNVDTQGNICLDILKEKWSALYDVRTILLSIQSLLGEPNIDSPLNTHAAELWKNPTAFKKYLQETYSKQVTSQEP
Chain of UniProt P61081 (whole entry, looked up): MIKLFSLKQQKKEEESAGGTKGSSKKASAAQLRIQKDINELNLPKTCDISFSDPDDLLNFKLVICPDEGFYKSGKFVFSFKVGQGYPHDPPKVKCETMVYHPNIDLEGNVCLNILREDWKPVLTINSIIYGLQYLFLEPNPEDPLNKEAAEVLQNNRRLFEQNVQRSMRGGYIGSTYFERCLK
Chain of UniProt Q7Z7E8 (whole entry, looked up): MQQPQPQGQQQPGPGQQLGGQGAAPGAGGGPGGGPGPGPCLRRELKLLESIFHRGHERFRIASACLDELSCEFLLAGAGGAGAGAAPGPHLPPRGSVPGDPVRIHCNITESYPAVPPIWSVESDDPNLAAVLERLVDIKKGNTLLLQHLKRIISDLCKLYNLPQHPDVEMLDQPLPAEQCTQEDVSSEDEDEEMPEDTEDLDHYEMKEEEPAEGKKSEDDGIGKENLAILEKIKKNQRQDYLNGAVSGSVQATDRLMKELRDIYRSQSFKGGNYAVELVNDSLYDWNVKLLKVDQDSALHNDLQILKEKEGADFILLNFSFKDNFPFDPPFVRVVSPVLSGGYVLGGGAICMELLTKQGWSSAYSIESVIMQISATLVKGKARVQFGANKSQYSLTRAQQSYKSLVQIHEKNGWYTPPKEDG
Chain of UniProt P68036 (whole entry, looked up): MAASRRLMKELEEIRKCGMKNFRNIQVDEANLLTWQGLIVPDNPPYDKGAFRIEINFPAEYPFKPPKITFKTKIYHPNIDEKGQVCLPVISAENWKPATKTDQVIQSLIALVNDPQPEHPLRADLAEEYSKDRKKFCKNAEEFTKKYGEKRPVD
Chain of UniProt P62253 (whole entry, looked up): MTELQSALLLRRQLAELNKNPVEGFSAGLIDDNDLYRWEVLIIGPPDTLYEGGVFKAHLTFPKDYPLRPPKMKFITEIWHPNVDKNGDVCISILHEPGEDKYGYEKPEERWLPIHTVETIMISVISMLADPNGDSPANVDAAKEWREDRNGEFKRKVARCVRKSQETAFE
Chain of UniProt Q9Y385 (whole entry, looked up): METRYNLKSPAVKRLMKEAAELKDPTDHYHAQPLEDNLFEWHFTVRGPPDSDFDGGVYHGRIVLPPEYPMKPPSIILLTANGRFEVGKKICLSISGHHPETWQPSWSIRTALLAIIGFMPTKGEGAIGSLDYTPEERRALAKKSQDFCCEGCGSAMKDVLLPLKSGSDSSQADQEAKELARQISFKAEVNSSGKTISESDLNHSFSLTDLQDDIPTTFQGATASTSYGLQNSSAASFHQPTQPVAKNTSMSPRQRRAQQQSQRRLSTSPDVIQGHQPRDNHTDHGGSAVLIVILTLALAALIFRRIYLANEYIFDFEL
Chain of UniProt Q8N2K1 (whole entry, looked up): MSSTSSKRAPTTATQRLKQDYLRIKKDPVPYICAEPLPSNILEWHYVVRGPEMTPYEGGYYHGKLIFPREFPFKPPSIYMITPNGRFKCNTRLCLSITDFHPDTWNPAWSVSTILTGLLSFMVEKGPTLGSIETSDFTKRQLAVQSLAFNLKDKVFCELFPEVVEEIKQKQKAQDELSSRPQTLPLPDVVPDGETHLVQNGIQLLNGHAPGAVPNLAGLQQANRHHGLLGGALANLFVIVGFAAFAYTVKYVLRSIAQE
Chain of UniProt Q969T4 (whole entry, looked up): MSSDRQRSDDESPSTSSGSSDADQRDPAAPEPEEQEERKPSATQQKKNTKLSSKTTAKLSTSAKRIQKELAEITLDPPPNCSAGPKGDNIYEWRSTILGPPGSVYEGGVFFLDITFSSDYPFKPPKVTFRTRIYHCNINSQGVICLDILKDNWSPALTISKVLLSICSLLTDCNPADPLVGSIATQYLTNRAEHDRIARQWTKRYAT

Sample 1
Target: CEBPD, bZIP domain (human)
Technique: DHFR protein complementation
Sample: yeast
Setting: single substitutions, most at no-binding floor
Relative to: wild-type JUN-FOS pair
Reading: higher = stronger binding
Starting sequence: JUN, bZIP domain (human); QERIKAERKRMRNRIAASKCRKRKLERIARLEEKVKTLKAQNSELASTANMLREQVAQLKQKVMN; partner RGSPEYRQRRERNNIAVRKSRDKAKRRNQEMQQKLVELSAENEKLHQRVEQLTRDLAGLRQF
Substitution | binding fitness
A29C | -1.41 natural log
S43T | -1.3 natural log
T37N | -1.31 natural log
M51N | -1.35 natural log
A40N | -1.45 natural log
A29M | -1.38 natural log
Q41K | -1.43 natural log
I28L | -1.32 natural log
E54F | -1.44 natural log
A29Y | -1.41 natural log

Sample 2
Target: Interferon regulatory factor 3, full length, phosphomimetic (IRF3, Homo sapiens, UniProt Q14653, residues 1-427, S386D/S396D/S398D/S402D/T404D/S405D)
Technique: protein-binding microarray
Form: double-stranded DNA, one strand shown
Sample: in vitro
Concentration: 2540 nM top
Setting: 60-bp whole probe
Together with: salmon DNA 0.4 mg/ml
Relative to: random background probes
Reading: higher = stronger binding
All sequences stand within: GCCTAGCAC … GTCTTGATTCGCTTGACGCTGCTG
Target sequence (chain): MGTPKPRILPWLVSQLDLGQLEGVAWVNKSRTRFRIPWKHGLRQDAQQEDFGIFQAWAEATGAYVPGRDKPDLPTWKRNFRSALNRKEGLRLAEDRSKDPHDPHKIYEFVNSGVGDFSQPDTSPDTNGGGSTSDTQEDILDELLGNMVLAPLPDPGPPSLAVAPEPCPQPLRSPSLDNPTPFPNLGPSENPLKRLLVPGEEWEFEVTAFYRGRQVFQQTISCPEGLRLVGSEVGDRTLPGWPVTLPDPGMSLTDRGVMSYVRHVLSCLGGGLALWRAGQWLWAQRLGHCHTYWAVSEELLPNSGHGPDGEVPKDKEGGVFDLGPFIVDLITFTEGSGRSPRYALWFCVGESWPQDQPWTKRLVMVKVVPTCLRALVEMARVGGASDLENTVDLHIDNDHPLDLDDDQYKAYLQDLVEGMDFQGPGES
Sequence | fitted relative affinity [z-score]
TCAACTCTCTCCATGTGACTGTGCTAG | 0.425
TCAAGTCTAGCCATTGTGACTGTGCTA | -0.892
TCATGGTCCTCTCTCTAACTGTGCTAG | 0.117
TACGATATCAGTATCGAGACGTGCTAG | 1.22
TTAGATTTCGGGCATCGATTAGTGCTA | 0.196
GACGATCTCAGAGTGGAGACGTGCTAG | 0.0764
GACGATATCAGTATCGTGACGTGCTAG | 1.14
TAAGATATCAGTCTCGATTAGTGCTAG | 1.36
GACGATGTCAGACTGGAGACGTGCTAG | -0.298
TTAAGTTTCGGTTTCGGTTAGTGCTAG | 12.1
TTAGGTTTCGGGTATCGGTCAGTGCTA | 4.3
TCAAATTAGAATTTAAAACTGTGCTAG | 0.222
TCAGGTTTTTTTTTAATACTGTGCTAG | 0.864
GACGGTTTCAGTATCGAGACGTGCTAG | 4.91
TCAGTCCTCACTTCCTTACTGTGCTAG | 0.639
GACGATTTCGGGTAACGAGACGTGCTA | 1.45
TGTCCTGTCTACATGGGTGTGTGCTAG | 1.21
TTAGATTTCAGTGTCGATTAGTGCTAG | 1.1
ATATATGTAATCATTCACCTGGTGCTA | 0.616
GACGATATCAGTATCGGGACGTGCTAG | 1.87
CAAATACTCTTCCATGGAGAAGTGCTA | 1.94
GACGGTTTTGGTCTCGGGACGTGCTAG | 3.09
TTAGAACGGGGGACTGGATTAGTGCTA | -0.25

Sample 3
Target: Max-binding protein MNT, bHLH-zipper, MAX partner unstated (MNT, Homo sapiens, UniProt Q99583, residues 220-300)
Technique: protein-binding microarray
Form: double-stranded DNA, one strand shown
Sample: in vitro
Concentration: not given
Setting: k-mer, scored over probes, only values ≥0.25
Reading: higher = stronger binding
Residues (chain): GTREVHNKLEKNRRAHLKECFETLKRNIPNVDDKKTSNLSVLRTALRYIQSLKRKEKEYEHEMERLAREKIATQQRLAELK
Sequence | E-score
ACCACGTC | 0.256
CACCCCAA | 0.317
ATGTGTCC | 0.324
AGGACATG | 0.251
CCACATGA | 0.435
ACGTGCTA | 0.451
CACATGGA | 0.473
GCAGGCAC | 0.289
ACCCCAAT | 0.259
ACGGCATG | 0.389
CATGCCTC | 0.34
TGTGTCAA | 0.272

Sample 4
Molecule: DDENSDNSNECVVCLSDLRDTLILPCRHLCLCTSCADTLRYQANNCPICRLPFRALLQIR (MGRN1 RING domain (UniProt O60291))
Technique: yeast two-hybrid
Sample: yeast
Setting: mostly zero background
Relative to: not given
Reading: higher = stronger interaction
target | lacZ reporter activity
UBE2Q1 UBC core domain (UniProt Q7Z7E8) | 0
UBE2C UBC core domain (UniProt O00762) | 0
UBE2L3 UBC core domain (UniProt P68036) | 0
UBE2J1 UBC core domain (UniProt Q9Y385) | 0
UBE2J2 UBC core domain (UniProt Q8N2K1) | 0
UBE2E3 UBC core domain (UniProt Q969T4) | 0
UBE2G1 UBC core domain (UniProt P62253) | 0
UBE2M UBC core domain (UniProt P61081) | 0

Sample 5
Target: Sal-like protein 4, full length isoform B (SALL4, Homo sapiens, UniProt Q9UJQ4-2, residues 1-616)
Technique: universal PBM
Form: double-stranded DNA, one strand shown
Sample: in vitro
Concentration: not given
Setting: 8-mer, flanks averaged, mean of replicates
Reading: higher = stronger binding
Sequence | E-score
CAACTAGA | 0.115
AACTGATG | 0.0891
CGTATAAC | 0.176
GCAGTGTA | 0.073
ACGTCTAT | 0.0761
ATCGCGCA | -0.0339
CCGGTCCA | -0.435
AGTGGTAA | 0.109
GGGTCGAC | -0.294
AAGTTCCA | -0.009
ACGAGAAT | 0.136
GCCTCGCA | -0.189
TCGCGGAA | -0.112
AAAATGAA | 0.348
ACGCAGGA | -0.105
CCGGAGTA | -0.188

Sample 6
Target: CCNA2, cyclin fold, Cln2 fusion (human)
Technique: yeast growth competition, sequencing
Sample: yeast
Setting: weak parent motif
Relative to: not given
Reading: higher = stronger binding
Starting sequence: FZR1 docking peptide (human); QDYERRLLRQIVI
Substitution | normalised enrichment score
R6A | 0.741
Q1A | 1.58
Y3A | 0.922
R9A | 0.244
L7A | 1.11
D2A | 1.3
L8F | 1.1

Sample 7
Target: RING finger protein unkempt homolog, zinc fingers 1-6, GST-SBP tag (UNK, Homo sapiens, UniProt Q9C0B0, residues 30-357)
Technique: RNA Bind-n-Seq
Form: RNA
Sample: in vitro
Concentration: not given
Setting: RNA with constant flanks, human-mouse chimeric sites, ends assumed
Relative to: input RNA pool
Reading: higher = stronger binding
Target sequence (chain): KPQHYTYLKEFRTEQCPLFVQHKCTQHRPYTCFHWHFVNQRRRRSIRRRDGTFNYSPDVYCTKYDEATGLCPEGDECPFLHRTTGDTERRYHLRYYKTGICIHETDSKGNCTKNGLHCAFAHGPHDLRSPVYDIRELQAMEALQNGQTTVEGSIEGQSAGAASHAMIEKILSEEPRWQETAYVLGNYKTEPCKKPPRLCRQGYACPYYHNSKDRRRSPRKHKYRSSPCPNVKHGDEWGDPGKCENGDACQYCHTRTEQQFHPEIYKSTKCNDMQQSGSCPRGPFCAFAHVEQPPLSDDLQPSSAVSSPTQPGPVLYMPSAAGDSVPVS
Sequence | bound/input enrichment
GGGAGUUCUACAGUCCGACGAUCAACAGAUUGUCUUUAAGCAUUCCAAGCAAUGCUUGGGGGGUGAUCAUUGUUGCCCAUGUGCCUUCUGUAAUAGAUGGAAUGCUGUUCCAUGUUACAUCUUUCCUUCACUCCAGAAUUGUUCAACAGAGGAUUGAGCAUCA | 0.0804 ratio
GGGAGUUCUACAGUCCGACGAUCGGACCAUAAUCAUGGAGGACAUAAUGCAGCUCCCCAAAGCGCGCGUCAACGCCAGCAUGCUAGCUCAGUAUAUCGACCGGCCCGUGUGCUUCGUGGGGAAGCUGGAAAAGAUUCAUCCCACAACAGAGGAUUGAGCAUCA | 0.101 ratio
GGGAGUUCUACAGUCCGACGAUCAUAUUUCAUAUUGCAAAGAUGUUUACAAGUAUUUUAAUUUAAGUUCAGUGAACUUUUUUGUAGCUGGGUUAAAUCUUUUUAUUUUAGUAUGGCCUUAAUGGCAAAGAACACUGUAUUUUUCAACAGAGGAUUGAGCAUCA | 3.49 ratio
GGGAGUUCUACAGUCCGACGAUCGUAAUGGACGUCAACACUGCUCUACAAGAGGUGCUGAAGACCGCCCUCAUCCACGAUGGCCUAGCACGUGGAAUUCGCGAAGCUGCCAAAGCCUUAGACAAGCGCCAAGCCCAUCUGUGUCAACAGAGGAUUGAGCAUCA | 1.29 ratio
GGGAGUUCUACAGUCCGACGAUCGUUCGGCUCUGGGAUCAUGCUACUAUGACAGAAGUGAAAUCUCUGAAUUUUAAUAUGUCUGUUAGCAGCAUGGAGUAUAUUCCUGAGGGAGAGAUUUUGGUUAUUACUUAUGGACGAUCUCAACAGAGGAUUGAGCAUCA | 0.376 ratio
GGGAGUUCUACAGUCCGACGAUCAUUGUUGAAGCGAAUCCACUUUUAGAAGCAUUUGGAAAUGCAAAGACUGUUCGCAACAAUAAUAGCAGUCGAUUUGGAAAAUUUGUAGAAAUACAUUUCAAUGAAAAGAGCUCAGUUGUUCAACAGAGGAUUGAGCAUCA | 0.155 ratio
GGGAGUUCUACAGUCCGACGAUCUUUGUAUUUAUGCUAAGCACACGUGCUGGUGGUCUGGGCAUCAAUCUUGCGACUGCUGAUGUAGUCAUUUUAUAUGACUCAGAUUGGAAUCCGCAAGUAGAUCUUCAGGCUAUGGACCGUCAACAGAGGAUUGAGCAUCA | 0.104 ratio
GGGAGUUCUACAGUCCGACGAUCUUACCCGAGAACGAGGAUGAGCUGGAGAGCACCAACAGACGCUAUACCAAGAGGGACUGCAGCACUUUCCUCAGAACUAGUGAGACGGGCAUCGUGGACCAGGUCAUGGUCACUCUCAACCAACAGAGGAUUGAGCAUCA | 0.228 ratio
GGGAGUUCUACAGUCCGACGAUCAGAUUCCCCCUCCUGAGACCUCCUCCGAAGUUGGAGUCUCUUACAGAUGGUUCAUCUCCUGUUAGCGUUUUAGUUUGGACCACCCAGCCUUGGACAAUUCCCGCCAAUGAAGCUGUUUGCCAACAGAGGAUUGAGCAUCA | 3.77 ratio
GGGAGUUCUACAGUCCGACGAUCGCUCCUCCCCGCUCUGCCCCUGCCUGCCACUGGGCUGGGACCAGAAUCUUAUUUUUUUUUAAAACUCUCAGUGUAACUGUAUCCCGUGACAUUUCAUUUUUUUUAAAUAGUGUAUUUUUUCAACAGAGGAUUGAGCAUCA | 21.7 ratio
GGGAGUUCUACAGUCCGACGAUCGGUGGGGUGGUCAUUGCCGUUUGAGCUCUGCUGAUUCAUGAGUCGCCUUCAAAACUCUCGUGUAGGGUUGACACUGUGGGGGGGUGGGGGAUCCAGCUUAUUCUUUUAUUUUCAAGUCCACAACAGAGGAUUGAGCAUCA | 1.04 ratio

Some of these lines once more (sample 2):
Sequence | fitted relative affinity [z-score]
TCAACTCTCTCCATGTGACTGTGCTAG | 0.425
TCAAGTCTAGCCATTGTGACTGTGCTA | -0.892
TCATGGTCCTCTCTCTAACTGTGCTAG | 0.117
TACGATATCAGTATCGAGACGTGCTAG | 1.22
TTAGATTTCGGGCATCGATTAGTGCTA | 0.196
GACGATCTCAGAGTGGAGACGTGCTAG | 0.0764
GACGATATCAGTATCGTGACGTGCTAG | 1.14
TAAGATATCAGTCTCGATTAGTGCTAG | 1.36
GACGATGTCAGACTGGAGACGTGCTAG | -0.298
TTAAGTTTCGGTTTCGGTTAGTGCTAG | 12.1
TTAGGTTTCGGGTATCGGTCAGTGCTA | 4.3
TCAAATTAGAATTTAAAACTGTGCTAG | 0.222
TCAGGTTTTTTTTTAATACTGTGCTAG | 0.864
